Published values gathered from unrelated publications.
Each numbered part is a random draw from the data of one study; scales do not carry over between parts.

Set 1
Target: Interferon regulatory factor 5, full length, phosphomimetic (IRF5, Homo sapiens, UniProt Q13568-2, residues 1-514, K96S/S451D/S453D/S456D/S462D)
Method: protein-binding microarray
Molecule type: double-stranded DNA, one strand shown
Sample: in vitro
Concentration: 250 nM
Notes: 60-bp whole probe
Added: salmon DNA 0.4 mg/ml
Baseline: random background probes
Direction: higher = stronger binding
Quantity: log fluorescence
All sequences stand within: GCCTAGCAC … GTCTTGATTCGCTTGACGCTGCTG
GACGAACTGGGGTATCGGGACGTGCTA: 0.393 z-score
GCCATTTTCCCTCCCTAATTGTGCTAG: 0.911 z-score
TTGTGTCTGGGCATTTTTTTAGTGCTA: -0.281 z-score
TTAGGTTTCGACACTGGGTAAGTGCTA: 6.15 z-score
ATGCTGGTCACTCTCTGGGCGTGCTAG: -0.444 z-score
ACGCATGTGGGTTCCATCATGTGCTAG: -0.36 z-score
CTAGGACTGGGTATCGGTTAGTGCTAG: 4 z-score
CTGCCTTTCAATCCTAGGCCGTGCTAG: 0.414 z-score
TTAGGTCTCCTTCTCCTATAGTGCTAG: 0.0322 z-score
GGTCTTTCCACTTTCTTTTGGTGCTAG: 2.55 z-score
TCACGTCTGGGTGTTTTACTGTGCTAG: -0.0168 z-score
TCAAAGCTCCTATCTTATACTGTGCTA: 0.361 z-score
TGAGGACTGGGTATCGGTTAGTGCTAG: 4.13 z-score
GACGAACTGCTACTGCTGACGTGCTAG: -0.202 z-score
TTAGGACTGGGTAGCGGTTAGTGCTAG: -0.621 z-score
ACTTCATTGCATATAGAAAAGTGCTAG: 0.538 z-score
TCATCAATCATTTTAGTACTGTGCTAG: 0.792 z-score
GTAGATTTCGGGACTGGATTAGTGCTA: 2.53 z-score

Set 2
Target: RNA binding protein fox-1 homolog 2, RRM domain, GST-SBP tag (RBFOX2, Homo sapiens, UniProt O43251-10, residues 100-194)
Method: RNA Bind-n-Seq
Molecule type: RNA
Sample: in vitro
Concentration: 365 nM
Notes: natural RNA segment, single round, ends assumed
Baseline: no-protein control
Direction: higher = stronger binding
Quantity: RBNS enrichment (R)
Construct (chain): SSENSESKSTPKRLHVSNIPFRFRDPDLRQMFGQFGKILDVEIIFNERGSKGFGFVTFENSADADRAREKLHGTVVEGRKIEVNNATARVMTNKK
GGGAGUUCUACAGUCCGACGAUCAUCCAAGUCCUCACACCCCUGUCAUCCCAGGAGAUCUUUCCUUGUGGUGGUUUCUGUGAGAAUUGGCCAUCCUGAGGACACAGCCAGGACGGCAGAGGCCUCCUGGCCUCUGGAAUUCUCGGGUGCCAA: 0.207
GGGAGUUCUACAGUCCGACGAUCUCCUCUUUUAUAGCUAGCAUGGGAAAAUCCCAUCCCUAAUAAUUGUGGACUCUUGGCCCAGGAAUCCACAAUAAUAGCUAGUGGUAGAAUUGGGAUGUAGCCUGAUUAUAUGGAAUUCUCGGGUGCCAA: 0.322
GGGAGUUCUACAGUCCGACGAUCACCGCUCAGAGAGCCAUGGUUGCUCAGGGAUGCUGCUCCGGGAUGCUUGACUAACAGUCGAGGCAGUGAACUGGGUGUAGAAAGCGUCAGGAAAUGGCCACAUGUGUGGAUGGAAUUCUCGGGUGCCAA: 0.331
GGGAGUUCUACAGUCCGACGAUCGAUGAUAGAGGGUGAAUGAUCUCAGUGCAUAUGUCAUACUGCCUUGUGGGUGGACUCUAAGUUGGCAAACCAAGGAUUUAGGGAGUGGCCUAGUCAACAUAAUUCUUUAAUGGAAUUCUCGGGUGCCAA: 3.47
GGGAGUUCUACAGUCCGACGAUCGGUGAAUCAGUACACUGUGACCAAGGUCCUCAAAUUGGAAUUUGAACAACAAUGUAAAACCUGUUCUGUCACAAAUGUUCCUGAAAGCACCACAGCUACUCAAGAAGAUCUGGAAUUCUCGGGUGCCAA: 0.239
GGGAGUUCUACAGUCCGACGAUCGUCACUGUGAAUCGUGGCCCAGUCUCAGUUUGUAGUUUCUCAUUAAAUUGGCCCUUUCACUCCCCCGCCUGGGCCUCUGCUCUCUUGCCUGGCUUCCUUCUUUUUUGAGGUGGAAUUCUCGGGUGCCAA: 0.589
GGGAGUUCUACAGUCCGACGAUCAAUGACUUGGAAGAACUGGGGCACAGCCAGUCCCAGACACUGGUGGAGGCUGCAGUGACUUUUUUUGGCUCAAGAUCCACAAGCAUUAGAGUAGACUGGGCCAACAAGUCUGGAAUUCUCGGGUGCCAA: 0.613
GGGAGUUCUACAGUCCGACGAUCACCAAACACCAGAGGCUGUUAAUUGUGGGUGGUGCUGUCAGUGUUCCUGACGGCUAUGUGUGUAUUUUAAUGGGGUUUGUCCUCAUCCACAAAUAAUUAUUUUUUUGUUAUGGAAUUCUCGGGUGCCAA: 1.01

Set 3
Target: RING finger protein unkempt homolog, zinc fingers 1-6, GST-SBP tag (UNK, Homo sapiens, UniProt Q9C0B0, residues 30-357)
Method: RNA Bind-n-Seq
Molecule type: RNA
Sample: in vitro
Concentration: not given
Notes: RNA with constant flanks, human-mouse chimeric sites, ends assumed
Baseline: input RNA pool
Direction: higher = stronger binding
Quantity: bound/input enrichment
Residues (chain): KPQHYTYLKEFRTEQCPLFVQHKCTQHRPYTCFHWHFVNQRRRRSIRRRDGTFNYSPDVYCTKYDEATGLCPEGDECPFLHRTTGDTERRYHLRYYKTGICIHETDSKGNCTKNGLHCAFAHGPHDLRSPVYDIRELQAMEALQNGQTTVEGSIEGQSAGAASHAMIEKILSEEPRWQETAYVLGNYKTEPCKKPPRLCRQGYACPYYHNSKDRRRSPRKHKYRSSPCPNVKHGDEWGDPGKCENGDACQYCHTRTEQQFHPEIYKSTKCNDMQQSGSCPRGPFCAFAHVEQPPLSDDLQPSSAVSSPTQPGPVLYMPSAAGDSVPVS
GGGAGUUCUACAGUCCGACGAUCACCAUUUUCGCGGUUCAGGCUUUGUGUUGUAUUUACUUACGGUAUUAAAUUAUUAUUCUGCUUAGCUUAUAAUAAGGAUAAUUGCAUUUAAAGAGGUGAUCACUGAAUACUCUGAAACUUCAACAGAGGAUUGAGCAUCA: 0.46 ratio
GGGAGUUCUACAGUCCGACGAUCUGACAAGGGCACUGCAGGGCCAUGCCUUUCUUGGACAUACAGAAAAAGCUGGGCAUCAGCCUGGACCGGCACUUUAUGUUCCUAAGCGCAGAACAGCCCUAUAAGAACGCCGCUCGGUGCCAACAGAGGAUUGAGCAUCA: 0.0557 ratio
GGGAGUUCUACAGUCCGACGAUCUUUCUACUGCAGCAAACGAUGCUAAGAGUGAAGGAUCCUAAGAAGUCCCUGGAUUUUUAUACGAGGGUUCUUGGACUGACCCUCCUGCAAAAAUGUGACUUCCCUGCUAUGAAGUUCUCGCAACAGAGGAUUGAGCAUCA: 0.183 ratio
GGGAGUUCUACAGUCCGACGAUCGCGGCAGAAUCAUGGAGGACAUAAUGCAGCUCCCCAAAGCGCGCGUCAACGCCAGCAUGUUACCACAGUAUAUCGACAAGCCUGUCUGCUUCGUGGGGAGGCUGGAAAAGAUUCAUCCCACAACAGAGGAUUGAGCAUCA: 0.162 ratio
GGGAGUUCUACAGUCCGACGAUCACACAAUAUGAGACCAACAGCAUGGACUUCAAAGUUGGGGCGGAUGGGACAGUCUUCGCCACCCGGGAGCUGCAGGUCCCCUCCGAGCAGGUGGCGUUCACGGUGACUGCAUGGGACAGCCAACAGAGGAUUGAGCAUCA: 0.489 ratio
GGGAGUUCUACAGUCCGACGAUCGGCUGCUGGUGACUGUCGGGAGCCGUCUGGAGUUCCCGCCGGAGCGCGGCCAGACUAAUUUUAGAAAAUGCCAAGUAGGAAGUUUGUUGAGGGUGAAGUGGUCAGAGGUCGAUGGCCUGGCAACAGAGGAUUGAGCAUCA: 2.5 ratio
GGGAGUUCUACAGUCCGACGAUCAAGGUGAUGACUAUGUUUGUACAGCGACAGGUAUUUUCGGAGAGCAAAGAUGAGAUUGCGUUAGUCCUCUAUGGCACAGAUGGCACUGAUAAUGCCCUUGCUGGCAAGGACCAGUAUCAGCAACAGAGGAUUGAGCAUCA: 0.182 ratio
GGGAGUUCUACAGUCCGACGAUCAAAGAACCUCUCUCUGAUGAAGAUGAGGAAGACAAUGAUGAUGUUGAACCCAUUUCUGAAUUUCGAUUUGUGCCCAGUGAUAAGUCAGCGUUGGAGGCAAUGUUCACAGCAAUGUGUGAGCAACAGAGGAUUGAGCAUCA: 0.199 ratio

Set 4
Target: Histone acetyltransferase KAT6A, winged helix 1, GST fusion (KAT6A, Homo sapiens, UniProt Q92794, residues 1-85)
Method: protein binding microarray
Molecule type: double-stranded DNA, one strand shown
Sample: in vitro
Concentration: not given
Notes: 8-mer, flanks averaged, mean of 2 arrays, mostly near background
Baseline: not given
Direction: higher = stronger binding
Quantity: E-score
Construct (chain): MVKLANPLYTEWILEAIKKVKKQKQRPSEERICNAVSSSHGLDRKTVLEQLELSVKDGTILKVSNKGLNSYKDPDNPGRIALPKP
AACATGCA: -0.0214
CGTGATCA: 0.00703
CATCGGTA: 0.129
AGATGTCA: -0.0538
AGCCATTG: -0.266
GCAGCACC: -0.042
AGCCGCCT: 0.239
GCTCGGCA: 0.187
CCAAGGTA: -0.132
TGAATGCA: -0.257
ACCGTTCA: 0.0861
AGCGTCCG: 0.231
AATAAAGT: -0.163
CCTTCGAA: -0.101
TCAATTCA: -0.262
ATCACCAT: -0.0225
AAAAATTC: -0.198
AAGCACGA: -0.23
ACTAGCAC: -0.102
CTGTCCGC: 0.231
GGCAGGTA: 0.067
AACCCAAC: -0.387
TGCGGCAA: 0.259
TCCCGAGA: 0.173
AATGTCAC: -0.21

Some of these lines once more (set 1):
CTAGGACTGGGTATCGGTTAGTGCTAG: 4 z-score
ACGCATGTGGGTTCCATCATGTGCTAG: -0.36 z-score
GACGAACTGCTACTGCTGACGTGCTAG: -0.202 z-score
TTAGGACTGGGTAGCGGTTAGTGCTAG: -0.621 z-score
TTGTGTCTGGGCATTTTTTTAGTGCTA: -0.281 z-score
